Assay results collected from several papers.
Parts stem from different laboratories: compare values within a part only.

Series 1
Target: PABPC1L2, full length, GST fusion (mouse, UniProt A0ABA7IW68)
Method: RNAcompete
Molecule type: RNA
Medium: in vitro
Concentration: 20 nM
Notes: 7-mer, probes averaged, single round
Reference: mean of 7-mers
Direction: higher = stronger binding
Measurement: 7-mer Z-score
Construct (chain): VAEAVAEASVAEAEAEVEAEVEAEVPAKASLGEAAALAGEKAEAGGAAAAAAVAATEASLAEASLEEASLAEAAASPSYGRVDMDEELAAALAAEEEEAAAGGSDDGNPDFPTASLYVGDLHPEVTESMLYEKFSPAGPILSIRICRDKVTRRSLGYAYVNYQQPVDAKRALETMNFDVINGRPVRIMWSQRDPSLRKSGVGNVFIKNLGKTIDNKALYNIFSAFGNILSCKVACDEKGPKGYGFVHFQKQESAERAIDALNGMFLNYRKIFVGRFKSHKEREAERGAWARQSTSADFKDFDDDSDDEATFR
Strand = CCGCCUC; result = -0.452
Strand = GGAGCUC; result = -0.246
Strand = UCGCGCC; result = -0.3
Strand = CGAACGC; result = -0.15
Strand = AGGGAGG; result = 0.423
Strand = GUCGCAG; result = -0.287
Strand = UCAAUGU; result = -0.287
Strand = CCUAUGC; result = -0.215
Strand = AAUGCCA; result = 0.157
Strand = UCUCAAC; result = -0.371
Strand = GGGAUGA; result = 0.318
Strand = UAACAUG; result = -0.0989
Strand = AUUUUAG; result = 0.0533
Strand = AGCAUGA; result = 0.3
Strand = AUGACGA; result = -0.0101
Strand = UUAGUAU; result = -0.117
Strand = CCUAAAU; result = 0.0986

Series 2
Target: RNA binding protein fox-1 homolog 2, RRM domain, GST-SBP tag (RBFOX2, Homo sapiens, UniProt O43251-10, residues 100-194)
Method: RNA Bind-n-Seq
Molecule type: RNA
Medium: in vitro
Concentration: 365 nM
Notes: natural RNA segment, single round, ends assumed
Reference: no-protein control
Direction: higher = stronger binding
Measurement: RBNS enrichment (R)
Shared flanks, not repeated: GGGAGUUCUACAGUCCGACGAUC … UGGAAUUCUCGGGUGCCAA
Residues (chain): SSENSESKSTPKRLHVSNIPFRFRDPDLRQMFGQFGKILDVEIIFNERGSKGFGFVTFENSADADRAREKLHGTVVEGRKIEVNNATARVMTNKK
Strand = AGCAACCUUGAGCAUCCCACCUCCGUGGGCUUGUGCUAGAGGGUGGGGCUGCCCACCCUACCUAGCUCCCCUUCCCUUCUCCCCAGGUGCCCACCAAUCAACAUUCAGAU; result = 0.547
Strand = GCCAAUCAGUUCUUAAUGAGGCACCUGUGUGUAAAUACAUGCUUGGUCUUCUCUGCAGAGAACUGAGGCUAAACUCUGUCCCUACUUCUGGUUUUGCCCUGUCAUGUCGU; result = 0.26
Strand = AAGAAAGUGGACAGGAUGCUACUGAGGGACAGAGAAGUUAGCUUUUCUUGAGAGCGGCCUGGGGUGGUUGGGUUGGAAGAAGCUGCUGCAGCGGCUAUAGUCAGAAGCCC; result = 0.977
Strand = GUGGGGCGGGCUUCAUAGAGACUUGGGAAUGAGCUGAAGGUGAAACAUUUUCUCCCUGGAUUUUUACCAGUCUCACAUGAUUCCAGCCAUCACCUUAGACCACCAAGCCU; result = 0.224
Strand = AGCAUCUUUUAUUGCAUUGGAAAGACUGGCAAAGUCUUUUGGAUGGGUUGGGAGAUGUGGCUGGAAAGUACUUUGGAAAAUAUACAAUCAAGAUAUCUCAUGGCAUAUUA; result = 0.354
Strand = GACAGAGAACAUGGUCUCCUGCAGGGCCCUGCCUCCCAAGCCCCGCCCUCAGAAAGCCAAGUACCUUUUCAGCUUUUUAACUGCCCCCAUCCCAACCCAGGGAGGCCUGU; result = 0.303
Strand = UAUCAUAUAUAUGGGUACUCUGUAAUAUCUAAAAGCUUAGAAAUGGGAUCUUGCUCACAAGAAUCACUUUUAAGAUCUUUUAGGGCUGUUAAUUUUAUUUUUCUCAGUGU; result = 0.378
Strand = CCCAAGGAUAAUUAAUUAUCCCACACAGUGAGAGCAGUGGCUUGCUUAGCUGACUGUGCCCACGCCAGUCUUCAGGCACUGCAAGCAGCCGCUGGUCCCUGCUAUCCGAA; result = 0.429

Series 3
Target: Phosphate system positive regulatory protein PHO4, full length, GST-tagged (PHO4, Saccharomyces cerevisiae, UniProt P07270, residues 1-312)
Method: competition protein-binding microarray
Molecule type: double-stranded DNA, one strand shown
Medium: in vitro
Concentration: 2 µM
Notes: whole 60-bp probe, lowest competitor level
Together with: Cbf1 competitor, 0.05 µM
Direction: higher = stronger binding
Measurement: fluorescence intensity
Shared flanks, not repeated: … GTCTTGATTCGCTTGACGCTGCTG
Residues (chain): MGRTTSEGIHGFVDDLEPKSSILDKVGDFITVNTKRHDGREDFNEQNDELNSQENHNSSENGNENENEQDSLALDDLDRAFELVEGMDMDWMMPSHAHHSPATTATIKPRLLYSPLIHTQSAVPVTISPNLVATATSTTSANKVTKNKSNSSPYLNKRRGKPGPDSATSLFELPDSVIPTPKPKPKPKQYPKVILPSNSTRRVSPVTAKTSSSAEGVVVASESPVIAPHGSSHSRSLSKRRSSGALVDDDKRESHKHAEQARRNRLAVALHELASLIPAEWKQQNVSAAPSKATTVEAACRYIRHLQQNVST
Strand = TCACTCATTCTAAAACCCGTGATGGCGCATCATACT; result = 7870 a.u.
Strand = CTTTCATCATATTTTCATGTGTCAGAAATAACACCG; result = 5300 a.u.
Strand = CAAACGGTTTGGCCGCTCGTGTCGGCATTGGTCAAA; result = 7060 a.u.
Strand = TGTGGCTGCGTTCGTCACGGGTCCACCTCAGGCAGA; result = 5540 a.u.
Strand = CTAACGAAGGTTTGCCCGGTGGGTGACAAGCCAAGT; result = 3730 a.u.
Strand = GTCTTGTCTCATTGTATTGTGGGTGTCCCCACTTCA; result = 4940 a.u.
Strand = CTTTCCCGATCTTGATGGGTGGGTGTAGCACATTTG; result = 4940 a.u.
Strand = AGTCGAGTACGATTCACTGTGACGGTCATCCTAGAT; result = 3090 a.u.
Strand = TAGCCCCCTATCTCCCACATGTTGGCATCTGTGAGG; result = 9440 a.u.
Strand = TGGGGCAAAAACCATCACGGGACTTATGTTTCGGGA; result = 5950 a.u.
Strand = CTAACGAAGGTTTGGAATGTGGGTGACAAGCCAAGT; result = 6290 a.u.
Strand = CTTTCAGAGGTGGATCTCGTGGCCGATCATTTAGAG; result = 9420 a.u.
Strand = TGCGCAACAACTTTGCACGTGTTTTTATGTCTAGAA; result = 18800 a.u.
Strand = CATACCCAACCTTGCACAGTGGGTGAAGATATTTGT; result = 4350 a.u.
Strand = AAAGCGGTAATTTTTCACGTGGGGTCAAATATCTAT; result = 18000 a.u.
Strand = GTCTTGTCTCATTGTCACTTTACTTTCCCCACTTCA; result = 4290 a.u.
Strand = AAATTACTAAGTTGTCACCACACTTACCCCGTATGA; result = 5460 a.u.
Strand = CAAGGGGGGGCCAGACACGGGCCGCTCTGGTTGGTC; result = 7740 a.u.
Strand = AAGTGCTTTGTTCTTCACGTGCTTTTTACGTCTATG; result = 14500 a.u.

Series 4
Target: Ras GTPase-activating protein-binding protein 1, C-terminal RGG region (G3BP1, Homo sapiens, UniProt Q13283)
UniProt Q13283, sequence (whole entry, looked up): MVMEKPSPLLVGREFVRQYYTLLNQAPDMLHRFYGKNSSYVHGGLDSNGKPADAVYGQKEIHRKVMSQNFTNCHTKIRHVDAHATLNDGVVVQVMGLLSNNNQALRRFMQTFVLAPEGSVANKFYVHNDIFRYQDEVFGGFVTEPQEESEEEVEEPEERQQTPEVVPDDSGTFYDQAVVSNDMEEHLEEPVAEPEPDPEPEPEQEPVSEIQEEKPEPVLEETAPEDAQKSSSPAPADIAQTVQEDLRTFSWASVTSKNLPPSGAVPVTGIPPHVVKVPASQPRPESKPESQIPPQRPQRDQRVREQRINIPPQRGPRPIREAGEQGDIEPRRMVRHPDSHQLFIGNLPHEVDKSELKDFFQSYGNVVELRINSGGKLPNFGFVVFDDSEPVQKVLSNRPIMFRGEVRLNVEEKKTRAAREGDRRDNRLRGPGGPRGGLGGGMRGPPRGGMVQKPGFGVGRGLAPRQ
Method: RNA Bind-n-Seq
Molecule type: RNA
Medium: in vitro
Concentration: 1 µM
Notes: whole 134-nt RNA, ends assumed
Together with: 150 mM KCl
Reference: input library
Direction: higher = stronger binding
Measurement: log2 enrichment
Shared flanks, not repeated: GGGAGUUCUACAGUCCGACGAUC … UGGAAUUCUCGGGUGUCAAGG
Strand = GCAGGAAGUAAAAACAAAUGGAAAUGCUUCGGAUAGUGGCAGGGGUGGGGGUUGCUAAGGAAAGGGUGGGAUGGGAGUGGGUAGAGAGUU; result = 0.552
Strand = AAGUCCUGUGCUACACAUCGUAUGUACCGAAUCAAACCCCCAAACCCAAACCCAAAAAAGUAUUAUGUUACGCCGUUCGGAUCUGCACUU; result = -1.23
Strand = ACCAUGCAGGUGGGCAUCUUUGGGAAGUGGGGCAAGGGGGGGAUAAGGAGGGGGGUAACACUUUGGGAACAGGUGGUCCCAGGUCGUUUC; result = 2.29
Strand = AAGUCCUGUGCUACACAUCGUAUGUACCGAAUCGGGAAAAAAAGGGAGGGUUUGGGAAAGUAUUAUGUUACGCCGUUCGGAUCUGCACUU; result = 0.961
Strand = AAGUCCUGUGCUACACAUCGUAUGUACCGAAUCGGGGCCCGGGGCCCGGGGCCCGGAAAGUAUUAUGUUACGCCGUUCGGAUCUGCACUU; result = -2.61
Strand = UUAGGCACUUGUUGGGCUCAUCACCGUUGUGUGGAGUGGUCACUAGGAGUAUGCCAGAUGGAAGAACCAUUGUUAGUGAACGUGGACAAA; result = -1.77
Strand = UCAAGUCCUGUGCUACACAUCGUAUGUACCGAAUCGGAAAGGAAAAAGGAAAGGAAAGUAUUAUGUUACGCCGUUCGGAUCUGCACUUCC; result = -1.6
Strand = GCAGGAAGUAAAAACAAAUGGAAAUGCUUCGGAUAGUGGCAGGGGUGGGGGAUGCUAAGGAAAGGGUGGGAUGGGAGUGGGUAAAGAGUU; result = 2.12
Strand = UAACUUUAGAGGAGGAUCUGAUGGAUAUGGCUGUGGACGUGGAUUUGGGGAUGGCUAUAAUGGGUAUGGAGGAGGACCUGGAGGUGGCAA; result = -1.35

Repeated from above (series 2):
Strand = AAGAAAGUGGACAGGAUGCUACUGAGGGACAGAGAAGUUAGCUUUUCUUGAGAGCGGCCUGGGGUGGUUGGGUUGGAAGAAGCUGCUGCAGCGGCUAUAGUCAGAAGCCC; result = 0.977
Strand = GUGGGGCGGGCUUCAUAGAGACUUGGGAAUGAGCUGAAGGUGAAACAUUUUCUCCCUGGAUUUUUACCAGUCUCACAUGAUUCCAGCCAUCACCUUAGACCACCAAGCCU; result = 0.224
Strand = AGCAUCUUUUAUUGCAUUGGAAAGACUGGCAAAGUCUUUUGGAUGGGUUGGGAGAUGUGGCUGGAAAGUACUUUGGAAAAUAUACAAUCAAGAUAUCUCAUGGCAUAUUA; result = 0.354
Strand = GACAGAGAACAUGGUCUCCUGCAGGGCCCUGCCUCCCAAGCCCCGCCCUCAGAAAGCCAAGUACCUUUUCAGCUUUUUAACUGCCCCCAUCCCAACCCAGGGAGGCCUGU; result = 0.303
Strand = UAUCAUAUAUAUGGGUACUCUGUAAUAUCUAAAAGCUUAGAAAUGGGAUCUUGCUCACAAGAAUCACUUUUAAGAUCUUUUAGGGCUGUUAAUUUUAUUUUUCUCAGUGU; result = 0.378
Strand = CCCAAGGAUAAUUAAUUAUCCCACACAGUGAGAGCAGUGGCUUGCUUAGCUGACUGUGCCCACGCCAGUCUUCAGGCACUGCAAGCAGCCGCUGGUCCCUGCUAUCCGAA; result = 0.429
